Results from different studies.
Each numbered part is a random draw from the data of one study; scales do not carry over between parts. Values joined by “and” are separate records of one study, mostly repeats; a detail may differ.
Chain of UniProt P35348 (whole entry, looked up): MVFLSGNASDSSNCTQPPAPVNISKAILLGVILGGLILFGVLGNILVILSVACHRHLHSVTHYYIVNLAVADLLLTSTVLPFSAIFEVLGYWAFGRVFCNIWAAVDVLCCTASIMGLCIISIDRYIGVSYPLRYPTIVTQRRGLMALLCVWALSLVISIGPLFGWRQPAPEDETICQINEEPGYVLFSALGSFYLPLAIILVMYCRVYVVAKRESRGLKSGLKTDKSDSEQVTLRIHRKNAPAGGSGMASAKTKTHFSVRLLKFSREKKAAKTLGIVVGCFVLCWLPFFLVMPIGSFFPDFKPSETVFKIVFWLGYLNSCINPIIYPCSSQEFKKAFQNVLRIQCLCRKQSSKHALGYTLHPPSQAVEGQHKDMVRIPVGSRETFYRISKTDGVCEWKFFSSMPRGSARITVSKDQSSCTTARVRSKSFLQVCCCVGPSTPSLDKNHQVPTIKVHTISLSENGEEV
Chain of UniProt Q01959 (whole entry, looked up): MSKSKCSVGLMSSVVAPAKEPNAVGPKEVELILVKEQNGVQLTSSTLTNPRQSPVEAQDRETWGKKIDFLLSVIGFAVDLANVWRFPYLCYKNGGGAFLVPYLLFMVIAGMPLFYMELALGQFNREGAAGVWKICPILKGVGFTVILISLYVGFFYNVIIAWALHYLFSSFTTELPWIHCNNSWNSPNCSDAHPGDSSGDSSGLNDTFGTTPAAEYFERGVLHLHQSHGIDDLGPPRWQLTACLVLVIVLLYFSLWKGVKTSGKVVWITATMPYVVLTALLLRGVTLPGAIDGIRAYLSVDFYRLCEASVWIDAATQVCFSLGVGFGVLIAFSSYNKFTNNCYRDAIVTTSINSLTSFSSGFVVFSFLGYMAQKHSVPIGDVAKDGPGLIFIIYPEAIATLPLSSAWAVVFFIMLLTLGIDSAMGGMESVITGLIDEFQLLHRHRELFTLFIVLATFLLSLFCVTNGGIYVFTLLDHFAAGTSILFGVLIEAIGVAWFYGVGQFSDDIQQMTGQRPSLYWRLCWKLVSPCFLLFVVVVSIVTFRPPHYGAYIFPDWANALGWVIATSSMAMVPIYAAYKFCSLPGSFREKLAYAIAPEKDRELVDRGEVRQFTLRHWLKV
Chain of UniProt P62344 (whole entry, looked up): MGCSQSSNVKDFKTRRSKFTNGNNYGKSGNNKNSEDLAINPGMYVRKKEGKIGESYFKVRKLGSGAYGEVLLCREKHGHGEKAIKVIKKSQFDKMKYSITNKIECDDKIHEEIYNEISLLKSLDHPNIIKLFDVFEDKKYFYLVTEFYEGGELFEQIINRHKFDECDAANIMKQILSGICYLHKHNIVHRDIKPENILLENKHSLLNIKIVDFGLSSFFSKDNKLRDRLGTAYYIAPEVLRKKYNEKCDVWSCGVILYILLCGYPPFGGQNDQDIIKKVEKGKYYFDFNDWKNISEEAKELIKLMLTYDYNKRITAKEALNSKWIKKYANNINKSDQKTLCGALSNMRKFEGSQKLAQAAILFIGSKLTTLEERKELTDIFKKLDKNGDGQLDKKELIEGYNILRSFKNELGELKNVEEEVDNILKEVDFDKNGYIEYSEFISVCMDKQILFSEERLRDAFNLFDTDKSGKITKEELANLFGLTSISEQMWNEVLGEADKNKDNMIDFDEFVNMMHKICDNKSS

Study 1 — read-out: enzyme activity; action: inhibitor; tested at: 77 µM; relative to: untreated; endpoint: remaining activity
Target: DNA polymerase theta, ATPase domain (POLQ, Homo sapiens, UniProt O75417)
Chain of UniProt O75417 (whole entry, unmodified, looked up): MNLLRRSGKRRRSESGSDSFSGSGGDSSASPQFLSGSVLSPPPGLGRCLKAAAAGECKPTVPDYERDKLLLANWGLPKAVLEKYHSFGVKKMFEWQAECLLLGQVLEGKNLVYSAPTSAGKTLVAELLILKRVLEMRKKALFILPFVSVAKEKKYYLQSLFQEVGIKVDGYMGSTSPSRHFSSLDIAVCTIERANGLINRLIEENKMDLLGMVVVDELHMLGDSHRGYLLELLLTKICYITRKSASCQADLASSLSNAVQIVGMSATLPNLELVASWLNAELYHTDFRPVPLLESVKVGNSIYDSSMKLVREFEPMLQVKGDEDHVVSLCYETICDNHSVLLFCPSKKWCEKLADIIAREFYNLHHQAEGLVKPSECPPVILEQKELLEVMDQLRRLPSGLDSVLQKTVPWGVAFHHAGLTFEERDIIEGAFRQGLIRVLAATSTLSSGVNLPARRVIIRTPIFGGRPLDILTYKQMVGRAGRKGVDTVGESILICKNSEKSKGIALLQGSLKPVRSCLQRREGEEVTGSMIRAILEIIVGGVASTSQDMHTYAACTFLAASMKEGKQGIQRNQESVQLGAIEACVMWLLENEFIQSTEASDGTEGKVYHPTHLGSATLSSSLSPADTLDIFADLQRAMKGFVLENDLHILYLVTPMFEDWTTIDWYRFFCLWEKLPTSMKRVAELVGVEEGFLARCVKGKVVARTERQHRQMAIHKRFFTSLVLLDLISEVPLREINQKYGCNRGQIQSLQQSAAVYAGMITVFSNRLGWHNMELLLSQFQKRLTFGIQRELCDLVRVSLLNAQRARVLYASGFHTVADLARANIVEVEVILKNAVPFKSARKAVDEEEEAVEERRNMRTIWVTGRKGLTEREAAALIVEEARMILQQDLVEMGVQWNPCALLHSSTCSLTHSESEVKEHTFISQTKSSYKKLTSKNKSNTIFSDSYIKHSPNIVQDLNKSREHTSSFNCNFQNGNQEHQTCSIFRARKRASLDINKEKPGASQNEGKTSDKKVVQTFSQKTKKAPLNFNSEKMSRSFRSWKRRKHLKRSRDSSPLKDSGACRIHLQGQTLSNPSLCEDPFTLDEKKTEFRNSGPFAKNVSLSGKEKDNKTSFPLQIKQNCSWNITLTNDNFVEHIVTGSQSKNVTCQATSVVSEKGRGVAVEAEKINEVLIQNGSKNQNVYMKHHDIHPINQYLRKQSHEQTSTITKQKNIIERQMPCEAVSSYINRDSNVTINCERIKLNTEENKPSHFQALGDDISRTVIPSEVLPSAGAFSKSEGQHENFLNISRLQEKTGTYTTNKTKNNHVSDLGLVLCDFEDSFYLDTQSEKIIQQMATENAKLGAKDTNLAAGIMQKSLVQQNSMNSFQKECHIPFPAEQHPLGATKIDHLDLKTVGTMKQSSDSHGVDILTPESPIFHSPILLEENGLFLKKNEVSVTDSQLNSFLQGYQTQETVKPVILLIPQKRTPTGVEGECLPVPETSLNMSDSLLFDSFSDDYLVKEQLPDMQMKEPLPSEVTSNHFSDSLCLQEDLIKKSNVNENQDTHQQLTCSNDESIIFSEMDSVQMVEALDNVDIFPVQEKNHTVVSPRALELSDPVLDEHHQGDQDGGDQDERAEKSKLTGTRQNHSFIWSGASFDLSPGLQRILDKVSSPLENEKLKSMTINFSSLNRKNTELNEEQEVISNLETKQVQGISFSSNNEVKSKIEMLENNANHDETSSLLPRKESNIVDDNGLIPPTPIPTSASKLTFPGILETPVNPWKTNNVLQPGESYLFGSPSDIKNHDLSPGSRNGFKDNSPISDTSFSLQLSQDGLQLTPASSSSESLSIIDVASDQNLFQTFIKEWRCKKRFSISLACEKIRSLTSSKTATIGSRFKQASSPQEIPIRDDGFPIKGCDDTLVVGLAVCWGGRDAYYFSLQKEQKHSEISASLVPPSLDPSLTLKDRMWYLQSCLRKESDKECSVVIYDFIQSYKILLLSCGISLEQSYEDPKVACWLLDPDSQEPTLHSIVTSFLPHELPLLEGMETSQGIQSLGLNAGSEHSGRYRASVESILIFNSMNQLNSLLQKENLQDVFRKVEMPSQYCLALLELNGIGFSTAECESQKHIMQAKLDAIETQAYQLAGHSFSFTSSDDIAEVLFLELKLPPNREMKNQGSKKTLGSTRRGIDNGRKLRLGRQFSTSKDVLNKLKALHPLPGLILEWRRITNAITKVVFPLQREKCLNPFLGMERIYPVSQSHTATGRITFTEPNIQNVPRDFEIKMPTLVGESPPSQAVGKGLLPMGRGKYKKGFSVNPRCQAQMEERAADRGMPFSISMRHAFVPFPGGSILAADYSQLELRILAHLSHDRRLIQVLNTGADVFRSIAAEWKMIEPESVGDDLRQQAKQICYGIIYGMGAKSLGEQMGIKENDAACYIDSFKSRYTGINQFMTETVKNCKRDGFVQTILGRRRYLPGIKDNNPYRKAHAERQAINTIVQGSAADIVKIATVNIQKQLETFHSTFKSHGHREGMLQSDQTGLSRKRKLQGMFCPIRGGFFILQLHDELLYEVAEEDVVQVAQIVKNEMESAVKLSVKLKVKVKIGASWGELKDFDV
C[C@]12CC[C@H](O)C[C@H]1CC[C@@H]1[C@@H]2CC[C@]2(C)[C@@H](C3=CC(=O)OC3)CC[C@]12O: 102%
O=c1c2ccccc2[se]n1-c1ccccc1: 101%
O=C(CCCN1CCC(n2c(=O)[nH]c3ccccc32)CC1)c1ccc(F)cc1: 104%
NCCCP(=O)(O)O: 95.8%

Study 2 — cell line: mouse MPNST tumor cells; technique: high-content nuclear imaging; measured: cell number; tested at: 10 µM; time: 12 h; setting: mean of 2 replicates; relative to: plate mean; direction: higher = more cells; endpoint: nuclei count
C[C@]12Cc3c[nH]nc3C[C@@H]1CC[C@@H]1[C@@H]2CC[C@@]2(C)[C@H]1CC[C@]2(C)O: 4.38 z-score
CC(NC(C)(C)C)C(=O)c1cccc(Cl)c1 (stereo not drawn): 1.43 z-score and 1.21 z-score
C[C@]12CC[C@H]3[C@@H](CC[C@@]45O[C@@H]4C(O)=C(C#N)C[C@]35C)[C@@H]1CC[C@@H]2O: -0.764 z-score
CN1[C@@H]2CC[C@H]1C[C@@H](OC1c3ccccc3CCc3ccccc31)C2: -4.12 z-score

Study 3 — organism: Sarcocystis neurona; read-out: parasite activity; tested at: 10 µM; time: 96 h; endpoint: activity class
CCCC(C)(COC(N)=O)COC(=O)NC(C)C (stereo not drawn): inactive
c1ccc2c3c([nH]c2c1)CNCC3: inactive
C=C1C[C@@H]2[C@H](CC[C@]3(C)C(=O)CC[C@@H]23)[C@@]2(C)C=CC(=O)C=C12: inactive
Cc1ncc2n1-c1ccc(Cl)cc1C(c1ccccc1F)=NC2: inactive

Further values, each from its own experiment
Cc1c(N2CCNCC2)nc2ccc(Br)cc2c1C(=O)NC[C@H](CCC(=O)O)c1ccccc1Cl
inhibition (Alpha-1A adrenergic receptor (ADRA1A, Homo sapiens, UniProt P35348); ligand displacement; 10 µM): 23.3%

O=C1NC(c2ccccn2)Sc2ccccc21 (stereo not drawn)
remaining binding (Calcium-dependent protein kinase 1 (CDPK1, Plasmodium falciparum, UniProt P62344); cell-free assay, competition with immobilised ligand; 1 µM): 57%

CCc1ccccc1C(=O)Nc1n[nH]c2c(C)c(F)c(C3C(C#N)=C(C)N(C)C(C)=C3C#N)cc12
inhibition (Sodium-dependent dopamine transporter (SLC6A3, Homo sapiens, UniProt Q01959); ligand displacement; 10 µM): -11.3%

A few entries again (further values, each from its own experiment):
CCc1ccccc1C(=O)Nc1n[nH]c2c(C)c(F)c(C3C(C#N)=C(C)N(C)C(C)=C3C#N)cc12
inhibition (Sodium-dependent dopamine transporter (SLC6A3, Homo sapiens, UniProt Q01959); ligand displacement; 10 µM): -11.3%
